Assay results collected from several papers.
A part holds a random share of what one study measured. Positions count from the first letter of the parent shown.
UniProt Q9ZSY8, sequence (whole entry, looked up): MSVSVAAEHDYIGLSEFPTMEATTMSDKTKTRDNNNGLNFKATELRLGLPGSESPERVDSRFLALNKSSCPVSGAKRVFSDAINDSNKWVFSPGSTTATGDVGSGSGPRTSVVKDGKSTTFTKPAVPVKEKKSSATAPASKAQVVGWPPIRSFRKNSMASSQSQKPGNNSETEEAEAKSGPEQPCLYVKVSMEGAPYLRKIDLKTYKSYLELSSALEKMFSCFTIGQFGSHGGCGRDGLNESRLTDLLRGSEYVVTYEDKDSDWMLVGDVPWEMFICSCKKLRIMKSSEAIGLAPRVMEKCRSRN
UniProt Q9XID4, sequence (whole entry, looked up): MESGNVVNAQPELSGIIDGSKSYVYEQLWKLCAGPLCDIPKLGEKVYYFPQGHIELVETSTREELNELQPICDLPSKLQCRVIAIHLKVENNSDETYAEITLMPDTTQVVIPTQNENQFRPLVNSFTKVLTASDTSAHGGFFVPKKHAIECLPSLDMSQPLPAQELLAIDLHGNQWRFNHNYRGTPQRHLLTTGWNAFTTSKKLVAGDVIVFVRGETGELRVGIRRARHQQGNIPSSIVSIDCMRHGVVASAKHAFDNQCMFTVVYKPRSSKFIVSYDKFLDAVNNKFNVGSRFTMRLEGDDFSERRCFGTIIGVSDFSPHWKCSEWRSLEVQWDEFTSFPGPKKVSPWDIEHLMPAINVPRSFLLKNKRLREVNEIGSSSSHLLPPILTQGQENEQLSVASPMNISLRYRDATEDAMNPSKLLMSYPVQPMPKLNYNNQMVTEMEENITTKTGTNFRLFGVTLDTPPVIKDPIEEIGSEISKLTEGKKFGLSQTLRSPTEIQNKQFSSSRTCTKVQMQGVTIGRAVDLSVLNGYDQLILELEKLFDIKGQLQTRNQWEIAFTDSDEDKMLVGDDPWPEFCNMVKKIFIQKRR
UniProt O24409, sequence (whole entry, looked up): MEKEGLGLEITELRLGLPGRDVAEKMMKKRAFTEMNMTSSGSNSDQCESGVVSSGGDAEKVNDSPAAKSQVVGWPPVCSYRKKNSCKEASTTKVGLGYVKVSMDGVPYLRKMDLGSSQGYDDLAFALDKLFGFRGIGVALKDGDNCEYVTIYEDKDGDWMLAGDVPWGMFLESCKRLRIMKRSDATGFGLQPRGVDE
UniProt Q9C5W9, sequence (whole entry, looked up): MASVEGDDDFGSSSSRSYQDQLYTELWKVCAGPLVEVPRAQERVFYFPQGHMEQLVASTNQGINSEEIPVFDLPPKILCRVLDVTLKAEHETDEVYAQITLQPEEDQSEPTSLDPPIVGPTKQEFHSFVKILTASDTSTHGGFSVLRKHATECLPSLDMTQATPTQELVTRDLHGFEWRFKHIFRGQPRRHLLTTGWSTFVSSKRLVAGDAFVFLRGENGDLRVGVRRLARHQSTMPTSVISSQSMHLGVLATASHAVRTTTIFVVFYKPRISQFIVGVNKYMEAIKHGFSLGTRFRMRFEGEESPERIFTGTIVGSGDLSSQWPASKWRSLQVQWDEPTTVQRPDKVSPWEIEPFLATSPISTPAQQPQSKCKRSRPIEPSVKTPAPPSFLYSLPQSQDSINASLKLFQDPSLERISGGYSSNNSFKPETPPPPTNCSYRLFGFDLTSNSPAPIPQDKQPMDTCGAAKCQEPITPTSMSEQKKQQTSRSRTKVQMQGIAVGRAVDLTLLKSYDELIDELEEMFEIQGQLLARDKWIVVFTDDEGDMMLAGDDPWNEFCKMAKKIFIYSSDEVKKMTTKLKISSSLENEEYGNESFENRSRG
UniProt Q38831, sequence (whole entry, looked up): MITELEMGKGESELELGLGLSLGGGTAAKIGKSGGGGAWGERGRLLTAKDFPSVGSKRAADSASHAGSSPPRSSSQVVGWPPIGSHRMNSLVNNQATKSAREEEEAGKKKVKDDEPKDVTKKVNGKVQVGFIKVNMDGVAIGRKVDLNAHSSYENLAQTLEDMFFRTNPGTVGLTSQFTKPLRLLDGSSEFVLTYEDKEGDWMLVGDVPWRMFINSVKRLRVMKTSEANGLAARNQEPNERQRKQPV
UniProt Q9C8N7, sequence (whole entry, looked up): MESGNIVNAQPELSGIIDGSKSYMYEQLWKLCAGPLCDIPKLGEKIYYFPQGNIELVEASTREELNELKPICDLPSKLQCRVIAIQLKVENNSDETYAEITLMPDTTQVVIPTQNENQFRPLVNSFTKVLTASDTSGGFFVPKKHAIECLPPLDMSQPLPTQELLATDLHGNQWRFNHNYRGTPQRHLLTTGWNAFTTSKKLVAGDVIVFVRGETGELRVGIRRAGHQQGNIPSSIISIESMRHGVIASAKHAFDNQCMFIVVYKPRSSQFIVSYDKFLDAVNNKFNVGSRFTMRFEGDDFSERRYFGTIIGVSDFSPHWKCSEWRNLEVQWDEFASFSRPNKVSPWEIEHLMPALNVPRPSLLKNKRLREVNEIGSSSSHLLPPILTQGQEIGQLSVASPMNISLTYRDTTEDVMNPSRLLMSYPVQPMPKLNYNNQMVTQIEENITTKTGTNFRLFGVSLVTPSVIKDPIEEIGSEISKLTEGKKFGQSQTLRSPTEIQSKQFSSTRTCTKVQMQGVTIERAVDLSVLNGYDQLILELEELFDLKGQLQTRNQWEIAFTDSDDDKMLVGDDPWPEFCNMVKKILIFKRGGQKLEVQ
UniProt Q8L7G0, sequence (whole entry, looked up): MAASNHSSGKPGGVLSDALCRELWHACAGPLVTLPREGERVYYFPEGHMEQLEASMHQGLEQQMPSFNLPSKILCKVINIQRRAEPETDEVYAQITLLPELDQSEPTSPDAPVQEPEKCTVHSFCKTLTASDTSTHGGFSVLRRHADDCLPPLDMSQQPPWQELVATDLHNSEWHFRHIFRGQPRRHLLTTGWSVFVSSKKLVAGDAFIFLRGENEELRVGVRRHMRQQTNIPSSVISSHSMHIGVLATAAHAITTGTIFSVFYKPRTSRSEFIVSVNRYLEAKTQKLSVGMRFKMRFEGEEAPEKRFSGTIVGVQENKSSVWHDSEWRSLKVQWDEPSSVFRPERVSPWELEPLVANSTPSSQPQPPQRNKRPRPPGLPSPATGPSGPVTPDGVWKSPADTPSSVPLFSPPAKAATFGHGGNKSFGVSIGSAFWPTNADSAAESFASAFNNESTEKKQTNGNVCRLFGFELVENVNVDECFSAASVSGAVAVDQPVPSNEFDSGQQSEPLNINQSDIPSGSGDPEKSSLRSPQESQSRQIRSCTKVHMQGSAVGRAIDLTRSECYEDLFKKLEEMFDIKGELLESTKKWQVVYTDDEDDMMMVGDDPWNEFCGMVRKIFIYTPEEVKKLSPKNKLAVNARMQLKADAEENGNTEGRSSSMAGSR

Study 1 — method: RNA Bind-n-Seq; form: RNA; medium: in vitro; tested at: 365 nM; baseline: no-protein control; direction: higher = stronger binding
Target: RNA binding protein fox-1 homolog 2, RRM domain, GST-SBP tag (RBFOX2, Homo sapiens, UniProt O43251-10, residues 100-194)
Setting: natural RNA segment, single round, ends assumed
Constant ends, left off below: GGGAGUUCUACAGUCCGACGAUC … UGGAAUUCUCGGGUGCCAA
Target sequence (chain): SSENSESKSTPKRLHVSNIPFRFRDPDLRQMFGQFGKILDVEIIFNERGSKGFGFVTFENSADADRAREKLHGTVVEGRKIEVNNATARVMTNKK
| Sequence | RBNS enrichment (R) |
| --- | --- |
| UUAGAGGGCUACUUCAGUGUCUCUACUGACAGAAACUCCUGUAUCUCAAAUGGAUCUCGAAGUUCUCUAGUAAGGAGUCCUAAGGAUGACAUGUAUUGGGCCACUAGCAG | 0.777 |
| GCAGUUGAAAUGUAGUCCCCUAGAAUCCUAAAGGCUGUUAUUCUCAUCCUAGUUCCAGGUGUAACUUGGUGGCCAGAAUUGAGAAGAGUGCCAAAUGACCACCCGUCAGG | 0.177 |
| ACAAUUUAAGGUCUUUUCUAAACACGAUAGUUAUAAAUGUCCUUUUUAGAUCUUCUGGGGUAUGCACAGCUUUAAUGAAUUAAAUUUACUGGAAUCAAUUGAAAUAAGAG | 1.53 |
| GUGUAACACACUGAUGGUUUUAAUGUAUCUUUUCCACUUAUUAUAGUUAUAUUCCUACAAUACAAUUUUAAAAUUGUCUUUUUAUAUUAUAUUUAUGCUUCUGUGUCAUG | 1.52 |
| ACCUAGAAACAAGGAUUCUACCUGAACUGAAAGGACUGUGUGACCUCCCCCAAGCCAACCACUUUCACCUGGGAUGACUUUCGAUUAUGCUUUGUUUUGGGGCUGUAUUU | 0.257 |
| CAGUGCUGUUUGGAGACUGUGAGAGGGAGUGCGUGUGUUGACACAUGUGGAUCAGGCCCAGGAAGGGCACAGGGGCUGAGCACUACAGAAGUCACAUGGGUUCUCAGGGU | 0.916 |
| UAUAAGAAUCUGGAUUAUCUAACAUUGUUAGCCCUGUGUAUGUACAGUUCAAAAAGUUCAUUUAUAAAAGUAGUUUCCUGUUCCUAGUGUGAUGUAUCACAAAUUGUGCU | 0.524 |
| AUGCUUGGAGAAAGAAGAAACCCUAUUCUUGUUUUAGUAUCUUGAUCUCAUUAGUUUAUAGGCGUUGAUAAUAUCCCUAUGCAUAGAUUCUUUGUGUAUUGAUUACUAUA | 0.536 |
| UAACCCAGCAGGCCCACCCCUCUGGGAGUCGUUGGUCUCCACCAGUUUUGUUAGGCUUUGAGUGUCUAUUCGGUUCCUAUCAAAGCUAGUGUGUAUUCCUUUCCACUACA | 0.221 |
| GCUCGAAUGGAAAUGUUCUUGUUUUUUACAUCAUUACUUCAGCAAUUUCAUUUGCAUUUUCCACAUGAACUAGUUCCAAAUCUGAAGCCCAGGUUGGGCAUGACAUUACA | 0.599 |
| AACCAUUCAGGGUGAUUUUUCUUGUCAGUGGACAGUGACGAACAGAGAUUUGAAAUCCCUUACCUCCAAUAAUAAGCCAUUCAGCCUAAAUUCAUUUUUAUGAAUAAAUC | 0.382 |
| CUUUAUUUCAAGAAAUGCAUAGAUAAGGGAGAAGAAAGGCUUCAAGGAUUCAUGGUUAAGAAGUGUGUAUGUUCUGAAGUGAAGGACCAGUAAGAAAUACAAGCCAGGCC | 2.3 |

Study 2 — target: CCND3, cyclin fold, Cln2 fusion (human); method: yeast growth competition, sequencing; medium: yeast; setting: weak parent motif; baseline: not given; direction: higher = stronger binding
Parent: CUX1 docking peptide (human); SRIRRELFIEEIQ
| Substitution | normalised enrichment score |
| --- | --- |
| R5A L7A | 0.0775 |
| E6A | 0.0794 |
| E10A | 0.156 |
| R5K F8L | 0.291 |
| E11A | 0.211 |
| S1A | 0.221 |
| F8L | 0.0845 |
| L7A | 0.0646 |
| R4A | 0.0836 |

Study 3 — Sequence: B1 (IAA1); method: two-hybrid; direction: higher = firmer interaction
T1: itself; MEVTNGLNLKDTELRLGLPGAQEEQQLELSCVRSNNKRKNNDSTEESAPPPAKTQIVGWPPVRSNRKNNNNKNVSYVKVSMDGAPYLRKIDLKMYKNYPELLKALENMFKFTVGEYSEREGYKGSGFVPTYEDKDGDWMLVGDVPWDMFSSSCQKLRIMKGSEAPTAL
B1: IAA1 (Arabidopsis thaliana, UniProt P49677); chain MEVTNGLNLKDTELRLGLPGAQEEQQLELSCVRSNNKRKNNDSTEESAPPPAKTQIVGWPPVRSNRKNNNNKNVSYVKVSMDGAPYLRKIDLKMYKNYPELLKALENMFKFTVGEYSEREGYKGSGFVPTYEDKDGDWMLVGDVPWDMFSSSCQKLRIMKGSEAPTAL
| partner | how to read | positive tests |
| --- | --- | --- |
| IAA27 (Arabidopsis thaliana, UniProt Q9ZSY8) | baseline: out of 2 tests | 2 |
| T1, itself | baseline: out of 4 tests | 2 |
| IAA19 (Arabidopsis thaliana, UniProt O24409) | baseline: out of 4 tests | 4 |
| ARF1 538-665 (Arabidopsis thaliana, UniProt Q8L7G0) | baseline: out of 4 tests | 0 |
| ARF18 482-602 (Arabidopsis thaliana, UniProt Q9C5W9) | baseline: out of 4 tests | 0 |
| IAA13 (Arabidopsis thaliana, UniProt Q38831) | baseline: out of 2 tests | 0 |
| ARF12 500-593 (Arabidopsis thaliana, UniProt Q9XID4) | baseline: out of 4 tests | 1 |
| IAA9 (Arabidopsis thaliana, UniProt Q38827) | baseline: out of 2 tests | 2 |
| ARF22 498-598 (Arabidopsis thaliana, UniProt Q9C8N7) | baseline: out of 4 tests | 1 |

Study 4 — method: protein-binding microarray; form: hairpin DNA; medium: in vitro; tested at: not given; baseline: not given; direction: higher = stronger binding; constant ends, left off below: GAGGCCG … CGGCCTCACACTC
Target: Homeobox protein Hox-B13, full length (HOXB13, Homo sapiens, UniProt Q92826, residues 1-284)
UniProt Q92826, sequence (whole entry, looked up): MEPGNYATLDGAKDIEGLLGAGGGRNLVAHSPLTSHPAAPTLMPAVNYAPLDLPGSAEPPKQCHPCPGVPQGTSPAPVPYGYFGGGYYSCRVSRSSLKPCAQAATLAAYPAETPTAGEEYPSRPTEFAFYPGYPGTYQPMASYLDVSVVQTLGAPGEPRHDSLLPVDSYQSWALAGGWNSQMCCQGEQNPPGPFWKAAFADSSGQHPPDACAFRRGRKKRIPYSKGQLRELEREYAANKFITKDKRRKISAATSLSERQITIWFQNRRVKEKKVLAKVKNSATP
Setting: whole hairpin DNA, median over replicate spots
| Sequence | median fluorescence |
| --- | --- |
| CGTTACGAGGGCCTCCTGGCCCTCGTAACG (5mC at 36) | 4360 a.u. |
| TTTTACGGGGGCCTCCTGGCCCCCGTAAAA (5mC at 13) | 4630 a.u. |
| TTTTACTGGGGCCTCCTGGCCCCAGTAAAA (5mC at 13) | 4720 a.u. |
| TTTCGTTGGGGCCTCCTGGCCCCAACGAAA | 4010 a.u. |
| TTTTACGGGGGCCTCCTGGCCCCCGTAAAA (5mC at 31) | 5400 a.u. |
| TGTTATTGGGGCCTCCTGGCCCCAATAACA | 4380 a.u. |
| TTTTACGACGGCCTCCTGGCCGTCGTAAAA (5mC at 16) | 4420 a.u. |
| TTTTATTGGGGCCTCCTGGCCCCAATAAAA (5mC at 38) | 4990 a.u. |
| TTTGACGAGGGCCTCCTGGCCCTCGTCAAA (5mC at 34) | 4170 a.u. |
| TTTTATAGGGGCCTCCTGGCCCCTATAAAA | 4990 a.u. |
| TTTCGTTGGGGCCTCCTGGCCCCAACGAAA (5mC at 11 33) | 4200 a.u. |
| TTTTAGGAGGGCCTCCTGGCCCTCCTAAAA (5mC at 32) | 4090 a.u. |
| TTCTACGAGGGCCTCCTGGCCCTCGTAGAA | 4060 a.u. |
| TTCGACGAGGGCCTCCTGGCCCTCGTCGAA | 4000 a.u. |
| TTTTAGGAGGGCCTCCTGGCCCTCCTAAAA | 4010 a.u. |

For quick reference, copied from above (study 1):
| Sequence | RBNS enrichment (R) |
| --- | --- |
| UAUAAGAAUCUGGAUUAUCUAACAUUGUUAGCCCUGUGUAUGUACAGUUCAAAAAGUUCAUUUAUAAAAGUAGUUUCCUGUUCCUAGUGUGAUGUAUCACAAAUUGUGCU | 0.524 |
| AUGCUUGGAGAAAGAAGAAACCCUAUUCUUGUUUUAGUAUCUUGAUCUCAUUAGUUUAUAGGCGUUGAUAAUAUCCCUAUGCAUAGAUUCUUUGUGUAUUGAUUACUAUA | 0.536 |
| UAACCCAGCAGGCCCACCCCUCUGGGAGUCGUUGGUCUCCACCAGUUUUGUUAGGCUUUGAGUGUCUAUUCGGUUCCUAUCAAAGCUAGUGUGUAUUCCUUUCCACUACA | 0.221 |
